Published values pooled from the literature.
Lines come from different studies, so protocols differ. Several values in a cell are separate wells, animals, samples, runs or records.

`COC1C=CC(OC(=O)C=Cc2ccccc2)C(O)C1(O)COC(=O)c1ccccc1` (single isomer, unassigned; (-)) has a viability of 70.9% (K562; cell growth or viability, MTT; 100 µg/mL).
For `Cc1nc(Nc2ncc(C(=O)Nc3c(C)cccc3Cl)s2)cc(N2CCN(C(=O)CCOCCNC(=O)CN)CC2)n1`, the viability was 99% and 98% (K562; cell growth or viability, CCK-8; 100 pM).
The viability of `Cc1cc(Cl)cc(-c2ccnc3cc(CN4C(=O)C5C(C4=O)C5(C)C)sc23)c1C[C@@H]1CNCCO1` (some centres unmarked) is reported as 0.859% and -0.131% and 0.672% (Capan-1 USP7 inhibitor-resistant pool; SRB; 20 µM, 5 days).
Under viability, `COc1ccc(Cn2cc(CCO[C@@H]3O[C@H]4[C@H](OC[C@H]4O)[C@H]3O)nn2)cc1` is recorded as “not toxic” (CHO-K1; cytotoxicity, CellTiter-Glo; up to 30 µM, 72 h).
`CCC1C=CC2CCN(C(=O)C3CCC4C=CC5(CCCN5C(=O)C(Cc5ccccc5Cl)NC(C)=O)C(=O)N43)C2C(=O)N1CC(=O)OC` (centres unmarked): viability “not toxic” (B16-F1; 180 µM, 24 h, Ena/VASP knockout, and wild type).
The viability of `C=C(C)[C@H]1Cc2c(cc(O)c3c2O[C@@H]2COc4cc(OC)c(OC)cc4[C@@H]2C3=O)O1` is reported as 66.9% (K562; cell growth or viability, MTT; 100 µg/mL).
With `CCc1c(-c2ccc3[nH]ncc3c2)cnc(N)c1-c1ccc(O)cc1` the viability was 106% and 105% (CHP-212 resistant sublines (heterozygous USP7 V517F); cell viability; 1.562 µM).
`C=Cc1c(C)c2cc3nc(c(CC(=O)OCCOCCOCCOC)c4[nH]c(cc5nc(cc1[nH]2)C(C)=C5CC)c(C)c4C(=O)O)[C@@H](CCC(=O)OCCOCCOCCOC)[C@@H]3C` gave a viability of roughly 20% (OVCAR-5; MTT; 1.0 µM, 4 h, dark).
`O=C(O)c1c(O)cc(O[C@@H]2O[C@H](CO)[C@@H](O)[C@H](O)[C@H]2O)cc1/C=C/c1ccccc1` gave a viability of greater than 50% (MLE12; cell growth or viability, crystal violet; 50 µM, 48 h).
The viability of `CN1CCCNC(=O)c2cccc(c2)C(=O)NCCCN(C)CCCNc2cccc3c2C(=O)c2cccc(c2C3=O)NCCC1` is reported as 82.9% (Ca9-22; cell growth or viability, CCK-8; 50 nM, 48 h).
`O=CCNCCOn1c(=O)n(OCCNCCO)c(=O)n(OCCNCCOn2c(=O)n(OCCNCCO)c(=O)n(OCCNCCO)c2=O)c1=O` has a viability of 66.9% (HUVEC; cell growth or viability, MTT; 25 µg/mL, 24 h).
`COc1cc(N2CCN(C(=O)CN)CC2)ccc1Nc1ncc(Cl)c(Nc2ccccc2P(C)(C)=O)n1` has a viability of 26% (NCI-H3122; cell growth or viability, CCK-8; 0.25 µM, 48 h).
The viability of `O=C(OC[C@@]1(O)C(=O)C=C[C@H]2[C@@H]1[C@H]1C=C[C@@H]2C(=O)[C@]1(O)COC(=O)c1ccccc1)c1ccccc1` is reported as 66.1% (K562; cell growth or viability, MTT; 25 µg/mL).
The viability of `COc1cc2c(cc1OC)-c1c(oc3c4c(cc(O)c3c1=O)OC(C)(C)C=C4)CO2` is reported as 87.9% (K562; cell growth or viability, MTT; 100 µg/mL).

Repeated from above:
`C=Cc1c(C)c2cc3nc(c(CC(=O)OCCOCCOCCOC)c4[nH]c(cc5nc(cc1[nH]2)C(C)=C5CC)c(C)c4C(=O)O)[C@@H](CCC(=O)OCCOCCOCCOC)[C@@H]3C` gave a viability of roughly 20% (OVCAR-5; MTT; 1.0 µM, 4 h, dark).
